# Measured values collected from several papers.
# Parts stem from different laboratories: compare values within a part only. Changes are numbered by the printed parent chain.

# Set 1 — method: competition protein-binding microarray; molecule type: double-stranded DNA, one strand shown; sample: in vitro; concentration: 2 µM; added: Cbf1 competitor, 0.05 µM; direction: higher = stronger binding; shared flanks, not repeated: … GTCTTGATTCGCTTGACGCTGCTG
# Target: Phosphate system positive regulatory protein PHO4, full length, GST-tagged (PHO4, Saccharomyces cerevisiae, UniProt P07270, residues 1-312)
# Setting: whole 60-bp probe, lowest competitor level
# Construct (chain): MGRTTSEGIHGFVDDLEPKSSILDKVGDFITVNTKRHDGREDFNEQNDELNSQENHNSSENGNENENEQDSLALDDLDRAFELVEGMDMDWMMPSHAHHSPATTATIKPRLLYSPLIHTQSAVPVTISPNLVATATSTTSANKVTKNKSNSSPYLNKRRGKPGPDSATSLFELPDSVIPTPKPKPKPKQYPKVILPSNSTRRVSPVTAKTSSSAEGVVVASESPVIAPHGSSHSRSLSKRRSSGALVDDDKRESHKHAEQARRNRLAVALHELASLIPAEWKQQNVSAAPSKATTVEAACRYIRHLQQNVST
Oligonucleotide,fluorescence intensity
GAGGCTTTCGATTACCATGTGCAATCTGTCTATGAA,9450 a.u.
CTGGAAGAGACCCACCATGTGGGATAGATCCCTGTA,9970 a.u.
CGTCCTAGTGATTGGGATGTGGGTGCCATGAGGAAG,6660 a.u.
AATTTCTTCAGGACTTGCAAAAAGAATCTAACTGAT,2830 a.u.
GAATGACTAAAGTCCCACGTTTTTCCCACTTTTAGT,13500 a.u.
CACAACCTTAACAGCAACGTGAACCTCAACATGAAC,10700 a.u.
GTCTTGTCTCATTGTAGTGTGGGTGTCCCCACTTCA,5050 a.u.
ACTTTCAACGTCCATCACGTGAACGACCGGCATTCT,11900 a.u.
ATGGTTCTAGCGAGTCACGTGCAAATTTTTAAAAAT,14200 a.u.
GAACCGGTAAGCCTACACGTCTAGGTGCATTCAACG,4220 a.u.
TGAGGGTTATCCAAGCGCATGACAATAAATGAGCGG,6230 a.u.
CTTCTCTTCTTCACCGGCGTGATGGGCTGCGTAACA,5930 a.u.
AAAGCGGTAATTTGTCACTTTACTTCACATATCTAT,2970 a.u.
AAAGCGGTAATTTTACACGTGTTTTCACATATCTAT,17200 a.u.
ACTCCACCTTTGAAAACGGTGTGAATTCGCCCTTTC,3660 a.u.
CCGAATGATAGCGTCAGCGTGCAAACTGTGAACGCA,6550 a.u.
TATAATCCTGGTCGGAACGTGCAAAATATGAGAACG,12500 a.u.
AAATTACTAAGTTGGCACGTGTTTTACCCCGTATGA,22900 a.u.

# Set 2 — organism: Saccharomyces cerevisiae; observed: binding; method: yeast competitive growth sequencing; molecule type: peptide; setting: cyclin B2-Cln2 chimera; direction: direction not given
Sequence,enrichment score
RKLDLEGIGR,-0.0717
ARKRLELGNLGNPQ,-0.623
DWDTVERQEEEAPSWD,1.32
VSRNLRSSLKSSLHTL,-1.85
TTTTSPRTPPPLTVQD,0.874
SCCKRKLVVGNGPEGP,-1.38
PPTFLSTGEIHAFLSS,-0.152

# Set 3 — method: DHFR PCA, deep sequencing; sample: yeast; added: (+)-ABA 17 µM; reference: wild-type fitted maximum; direction: higher = stronger binding
# Target: ABI1, truncated, D143A, DHFR fusion (Arabidopsis thaliana)
# Setting: methotrexate growth selection, single substitutions
# Starting sequence: PYL1, truncated, DHFR fusion (Arabidopsis thaliana); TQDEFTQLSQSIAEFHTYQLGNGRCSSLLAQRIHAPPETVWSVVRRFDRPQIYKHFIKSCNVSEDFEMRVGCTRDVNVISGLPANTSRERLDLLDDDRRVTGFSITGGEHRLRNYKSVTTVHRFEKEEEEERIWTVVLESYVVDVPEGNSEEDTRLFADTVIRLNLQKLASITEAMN
Change,relative binding score
D3R,74.3%
N149R,9.46%
N165W,-3.43%
L20K,86%
T135E,-3.78%
G23Y,51.4%
Q51I,3.79%
T135A,54.1%
T160F,91.6%
V100I,86.6%
C72N,71.9%
N85P,3.57%
I52R,77.3%
I105H,7.81%
T160R,44.5%

# Set 4 — method: RNA Bind-n-Seq; molecule type: RNA; sample: in vitro; concentration: 365 nM; reference: no-protein control; direction: higher = stronger binding
# Target: RNA binding protein fox-1 homolog 2, RRM domain, GST-SBP tag (RBFOX2, Homo sapiens, UniProt O43251-10, residues 100-194)
# Setting: natural RNA segment, single round, ends assumed
# Shared flanks, not repeated: GGGAGUUCUACAGUCCGACGAUC … UGGAAUUCUCGGGUGCCAA
Oligonucleotide,RBNS enrichment (R)
UGGGUUCACAUCUGUGUUUUGCAUGUCCAGCAGUGGGGCUCUGGACUCCCUAGCGCCCUGGUUGUGGUGACAGUCCAACAAGUUGAUAUUAUAAAGCACUUUAUAACACC,36.1
UCGGGAUCUUAGUACAUGGACUUAAAAGGCAACACUACAUCAAUGGUUUGUAUAUGUGGUGAAUUCCUGCAAGAACAGUGCAUUUGUAUUAGAAAUGUAAGUUUUAAGGA,0.369
CCUACCCAGAUGACCAAAAAGCCAGUGGAAACAGUUAAGCCCCUCCAUAUCAGGCUUACCAAGAAUAUGUGCCCUGUUUUUACCCGAGAUUUCUCCACUUGCCUCAAGGC,0.668
CCAACUUCUCAGGCUGUCUUGCCCAAGAUGCAGGACCCCUACCUAGCCCACCUCCCAAGGCACCUGUGCCUCCACUCAGGAUGUCUUGCUCUGACUGGCUCCCCUUCCAG,0.401
UUACACGUUUGUUAGCACUAGUUCUGAAUUUGUGUAGGUCUCAACCUUUCAGGACAUCUGGGUCUAAUACAGAAGAAUUAAUAAACUGGAUGAUUACUACAGCAAAAGCA,2.42
CGACCACCCUCUGCCCCUCCUGCAGUCAGAACCCGAGUAGUGCAAGAACGGCCACCCGGUUUUGCCAGCGUUCAGCGUCUGCCCAUGGACCCAUAAGGCACAUUAGCGUU,0.439
GGGAACGAGGGAUGAUGAUAACCCUGCCCAUCUGGGAGCCUGAGGACCUGACUAAGGGGUAAGCAGGCCCAGACUGUGGCUCUUGGGUCCUAGAGGGAACCCCCUGUGGU,0.594
AUUAUAAACAUUUUUCAUUAUUGGAAAGUGUGAAGGGGACCUUCUGCAUACCUGUUUAGAACCAAAACCACCACGACACGGUUUUUAUAGUGUCUGUAUAUUUGUGAUGC,0.522

# A few entries again (set 4):
Oligonucleotide,RBNS enrichment (R)
UCGGGAUCUUAGUACAUGGACUUAAAAGGCAACACUACAUCAAUGGUUUGUAUAUGUGGUGAAUUCCUGCAAGAACAGUGCAUUUGUAUUAGAAAUGUAAGUUUUAAGGA,0.369
CCUACCCAGAUGACCAAAAAGCCAGUGGAAACAGUUAAGCCCCUCCAUAUCAGGCUUACCAAGAAUAUGUGCCCUGUUUUUACCCGAGAUUUCUCCACUUGCCUCAAGGC,0.668
CCAACUUCUCAGGCUGUCUUGCCCAAGAUGCAGGACCCCUACCUAGCCCACCUCCCAAGGCACCUGUGCCUCCACUCAGGAUGUCUUGCUCUGACUGGCUCCCCUUCCAG,0.401
UUACACGUUUGUUAGCACUAGUUCUGAAUUUGUGUAGGUCUCAACCUUUCAGGACAUCUGGGUCUAAUACAGAAGAAUUAAUAAACUGGAUGAUUACUACAGCAAAAGCA,2.42
CGACCACCCUCUGCCCCUCCUGCAGUCAGAACCCGAGUAGUGCAAGAACGGCCACCCGGUUUUGCCAGCGUUCAGCGUCUGCCCAUGGACCCAUAAGGCACAUUAGCGUU,0.439
GGGAACGAGGGAUGAUGAUAACCCUGCCCAUCUGGGAGCCUGAGGACCUGACUAAGGGGUAAGCAGGCCCAGACUGUGGCUCUUGGGUCCUAGAGGGAACCCCCUGUGGU,0.594
AUUAUAAACAUUUUUCAUUAUUGGAAAGUGUGAAGGGGACCUUCUGCAUACCUGUUUAGAACCAAAACCACCACGACACGGUUUUUAUAGUGUCUGUAUAUUUGUGAUGC,0.522
